Measurements of several laboratories.
Parts stem from different laboratories: compare values within a part only. Changes are numbered by the printed parent chain.

Series 1
Target: ABI1, truncated, D143A, DHFR fusion (Arabidopsis thaliana)
Method: DHFR PCA, deep sequencing
Sample: yeast
Setting: methotrexate growth selection, single substitutions
With: (+)-ABA 0.39 µM
Baseline: wild-type fitted maximum
Reading: higher = stronger binding
Starting sequence: PYL1, truncated, DHFR fusion (Arabidopsis thaliana); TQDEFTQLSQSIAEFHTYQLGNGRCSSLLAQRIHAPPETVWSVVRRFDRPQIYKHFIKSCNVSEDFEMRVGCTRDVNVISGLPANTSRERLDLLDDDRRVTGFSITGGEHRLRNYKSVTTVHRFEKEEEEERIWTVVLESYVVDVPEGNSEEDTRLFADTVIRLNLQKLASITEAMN; partner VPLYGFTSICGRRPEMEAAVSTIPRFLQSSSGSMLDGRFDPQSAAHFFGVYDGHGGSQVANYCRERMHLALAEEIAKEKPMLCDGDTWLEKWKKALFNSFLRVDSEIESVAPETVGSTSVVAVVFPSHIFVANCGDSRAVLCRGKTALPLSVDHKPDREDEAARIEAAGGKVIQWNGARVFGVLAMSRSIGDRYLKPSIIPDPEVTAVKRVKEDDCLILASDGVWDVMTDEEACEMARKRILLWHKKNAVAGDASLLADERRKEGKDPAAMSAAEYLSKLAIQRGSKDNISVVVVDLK
Substitution	relative binding score [%]
R49P	5.2
S87Q	48.7
S26W	2.14
S80L	34.8
Q19C	24.2
L28P	-6.66
W41D	-18.4
E127M	53.8
F15T	-3.87
I12R	-2.95
V161N	17.9
E67G	9.84
L29R	0.422
T106S	-3.6
L82T	4.17
Y141K	-20
V70I	43.5
D153V	-5.22
S59Y	-0.924
T101N	-2.96
Q167M	37.6
K116A	6.63
R111E	-12.1
G102M	-0.00742
G21P	32.2

Series 2
Target: CEP164, C-terminal peptide (human)
Method: DHFR complementation, deep sequencing
Sample: yeast
Setting: single substitutions, model-inferred values
Baseline: wild type
Reading: higher = weaker binding
Starting sequence: PDZK1, PDZ domain 2 (human); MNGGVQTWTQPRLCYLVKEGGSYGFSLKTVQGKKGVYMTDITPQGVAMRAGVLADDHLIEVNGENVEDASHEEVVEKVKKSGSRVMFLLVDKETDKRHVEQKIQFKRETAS; partner HNRVKVYRF
Substitution	binding free energy change
H71D	-0.38 kcal/mol
G20D	0.2 kcal/mol
L27Y	0.807 kcal/mol
G32E	0.288 kcal/mol
Q101K	-0.112 kcal/mol
M86E	-0.208 kcal/mol
T9I	0.186 kcal/mol
F87C	1.04 kcal/mol
M1D	-0.193 kcal/mol
K106Q	-0.104 kcal/mol
Y23I	1.3 kcal/mol
F105E	-0.354 kcal/mol
V17W	-0.0623 kcal/mol
L89I	0.509 kcal/mol
T9L	0.0902 kcal/mol
R84A	0.0196 kcal/mol
E76M	0.0939 kcal/mol

Series 3
Target: CCNE2, cyclin fold, Cln2 fusion (human)
Method: yeast growth competition, sequencing
Sample: yeast
Setting: strong parent motif
Baseline: not given
Reading: higher = stronger binding
Starting sequence: SCAPER docking peptide (human); SNARRSLNFGGST; partner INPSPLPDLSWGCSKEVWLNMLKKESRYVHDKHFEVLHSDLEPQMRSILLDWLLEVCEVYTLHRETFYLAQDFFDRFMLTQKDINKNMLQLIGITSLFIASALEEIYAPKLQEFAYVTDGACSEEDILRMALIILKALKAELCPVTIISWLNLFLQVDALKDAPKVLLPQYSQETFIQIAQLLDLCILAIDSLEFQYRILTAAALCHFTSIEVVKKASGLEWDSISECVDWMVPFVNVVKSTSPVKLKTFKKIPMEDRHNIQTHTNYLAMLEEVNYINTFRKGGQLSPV
Substitution	normalised enrichment score
G10M	0.979
R5E	-0.0827
S6L	1.73
S6I	3.37
T13Y	0.997
G11R	0.436
L7F	-0.00957
A3K	-0.505
F9P	0.819
G10V	0.112
S12P	2.11
A3C	1.48
N8F	1.51
G10D	0.879
F9G	-0.505
F9E	-0.197
T13H	0.985
S1H	0.698
S1E	0.496
S12Q	0.916
G10N	0.92
S1D	1.46
R5N	-0.843
N2M	0.261
N2F	1.4

Series 4
Target: Ras GTPase-activating protein-binding protein 1, C-terminal RGG region (G3BP1, Homo sapiens, UniProt Q13283)
Chain of UniProt Q13283 (whole entry, looked up): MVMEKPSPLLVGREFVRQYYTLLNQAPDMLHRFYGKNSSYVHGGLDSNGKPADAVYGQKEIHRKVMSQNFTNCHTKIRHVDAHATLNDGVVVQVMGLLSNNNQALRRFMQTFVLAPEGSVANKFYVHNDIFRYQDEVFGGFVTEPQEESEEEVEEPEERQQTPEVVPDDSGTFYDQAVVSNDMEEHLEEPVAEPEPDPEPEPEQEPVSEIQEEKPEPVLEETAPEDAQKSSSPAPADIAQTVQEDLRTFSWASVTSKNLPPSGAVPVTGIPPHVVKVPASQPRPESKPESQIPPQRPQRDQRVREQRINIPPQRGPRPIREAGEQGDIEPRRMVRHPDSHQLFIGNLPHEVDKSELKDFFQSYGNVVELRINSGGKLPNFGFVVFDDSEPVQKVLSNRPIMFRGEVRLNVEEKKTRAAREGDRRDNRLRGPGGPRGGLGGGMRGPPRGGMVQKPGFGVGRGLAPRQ
Method: RNA Bind-n-Seq
Molecule type: RNA
Sample: in vitro
Tested at: 1 µM
Setting: whole 134-nt RNA, ends assumed
With: 150 mM KCl
Baseline: input library
Reading: higher = stronger binding
Constant ends, left off below: GGGAGUUCUACAGUCCGACGAUC … UGGAAUUCUCGGGUGUCAAGG
Oligonucleotide	log2 enrichment
CUCAAGUCCUGUGCUACACAUCGUAUGUACCGAAUCGGGCCGGGGCCGGCCGGAAAGUAUUAUGUUACGCCGUUCGGAUCUGCACUUCCA	-0.945
UCCUGUGCUACACAUCGUAUGUACCGAAUCGGGGAGGGGAAAAAAAGGGGAAAAAGGGGAAAGUAUUAUGUUACGCCGUUCGGAUCUGCA	1.38
CACAGACAACACGCACCCACACAGACACAGAGGGAAGGGGUUGGGAUGGGGACAGGGUGCACAGCAGGGCGGGGUAGGAACCCAGCCCCU	-0.931
UACUAUGAAGCCUUGUGCAAAUCCCUCGACUGGCAGAUAGACGUGGACCUACUCAAUAAAAUGAAGAAGGCAAAUGAAGAUGAGUUGAAG	-1.54
AGUCCUGUGCUACACAUCGUAUGUACCGAAUCGGAAAAAGGAAAAAGGGGAAAAAGGAAAGUAUUAUGUUACGCCGUUCGGAUCUGCACU	-1.73
CUCAAGUCCUGUGCUACACAUCGUAUGUACCGAAUCGGGGUGGGGUGGUGGGGAAAGUAUUAUGUUACGCCGUUCGGAUCUGCACUUCCA	0.755
UUAAGAAUUUGCUUAAAGAAGUGCGGAUCUAUGCACAGAAAUUUAUUGAUCGAGGAAAGGAUUUUAACUUGGAGUUGGCAAUUAAAACAC	0.543
GCAUGAAGUAAAAACAAAUGGAAAUGCUUCGGAUAGUGGCAGGGGUGGGGGUUGCUAAGGAAAGGGUGGGAUGGGAGUGGGUAAAGAGUU	1.48
AGUCCUGUGCUACACAUCGUAUGUACCGAAUCGGGGAAAGGGGAGGGGUUUUUGGGGAAAGUAUUAUGUUACGCCGUUCGGAUCUGCACU	2.03
UGGUAUUCAUGGGUAGUUUGAAAUAUCCAGAUGAGAAUGGAUUUGAUGCCUUCCUGAAGAAGCAUGGGGGUAGUGAUAAUGCCUCAACUG	-1.31
